# Results from different studies.
# Lines come from different studies, so protocols differ. pEC50, pIC50: −log10 of the molar value.
# UCHL1: Ubiquitin carboxyl-terminal hydrolase isozyme L1 (UCHL1, Homo sapiens, UniProt P09936)
# Chain of UniProt P09936 (whole entry, looked up): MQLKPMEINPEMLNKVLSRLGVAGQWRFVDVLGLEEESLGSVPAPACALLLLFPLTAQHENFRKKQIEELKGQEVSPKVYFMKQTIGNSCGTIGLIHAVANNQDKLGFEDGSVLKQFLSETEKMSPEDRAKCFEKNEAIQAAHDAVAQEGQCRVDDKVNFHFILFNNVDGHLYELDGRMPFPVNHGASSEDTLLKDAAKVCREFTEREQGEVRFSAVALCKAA
Compound,target or system,test,setting,quantity,result
O=C(c1cc(Cc2n[nH]c(=O)c3ccccc23)ccc1F)N1CCN(C(=O)C2CC2)CC1,MDA-MB-453,,,pIC50,6.36
O=C(/C=C/C=C/C=C/C1CCCCC1)NC1=C[C@@](O)(/C=C/C=C/C=C/C(=O)NC2=C(O)CCC2=O)[C@@H]2O[C@@H]2C1=O,MDA-MB-453,"cell growth, CellTiter-Glo",78 h,GI50,8290 nM
N#CC(=Cc1ccccc1OC(F)F)C(=O)NC1CCCCC1,UCHL1,"covalent, intact protein LC-MS",12.5 µM,labelling,21.6%
C=CC(=O)N1CCC(COCC(=O)N2CCN(c3nc(-c4cnc(N)nc4C(F)F)nc(N4CCOC[C@@H]4C)n3)CC2)CC1,MDA-MB-453,"western blot, item: phospho-S6 Ser235/Ser236",2 h,pIC50,6.26
C[C@H](Nc1ccc2c(c1)OCCn1cc(N3C(=O)OC[C@H]3C(F)F)nc1-2)C(N)=O,MDA-MB-453,"cell growth, CellTiter-Glo",120 h,Hill coefficient GR curve,1.89
Cc1nc(NC(=O)N2CCC[C@H]2C(N)=O)sc1-c1ccnc(C(C)(C)C(F)(F)F)c1,MDA-MB-453,"western blot, item: phospho-S6 Ser235/Ser236",2 h,pIC50,5.70
COc1ccc(-c2c(C=O)c3cc(C#N)c(C#N)cc3n2OC)cc1,UCHL1,"covalent, intact protein LC-MS",12.5 µM,labelling,17.2%
COc1cnc2cccc(N3CCc4c(cc(Cn5ccnc5C)cc4-c4cn(C)nc4C(F)(F)F)C3=O)c2c1,MDA-MB-453,"cell growth, inhibitor",120 h,pEC50,6.01
O=C(Cc1ccccc1)Nc1nnc(CCSCCc2nnc(NC(=O)Cc3ccccc3)s2)s1,MDA-MB-453,"cell proliferation, inhibitor, cell counting",144 h,pEC50,~4.70
C[C@H](Nc1ccc2c(c1)OCCn1cc(N3C(=O)OC[C@H]3C(F)F)nc1-2)C(N)=O,MDA-MB-453,resazurin growth rate inhibition,72 h,GR50,6.3 nM
CCn1cc(-c2cc(Cn3ccoc3=N)cc3c2CCN([C@@H](C)c2cc(OC)ccn2)C3=O)c(C(F)(F)F)n1,MDA-MB-453,"cell growth, inhibitor",120 h,pEC50,6.71
